# Experimental data gathered from unrelated publications.
# Lines come from different studies, so protocols differ. Values joined by “and” are separate records of one study, mostly repeats; a detail may differ. ± gives the spread as reported.
# Sequence of UniProt P28565 (whole entry, looked up): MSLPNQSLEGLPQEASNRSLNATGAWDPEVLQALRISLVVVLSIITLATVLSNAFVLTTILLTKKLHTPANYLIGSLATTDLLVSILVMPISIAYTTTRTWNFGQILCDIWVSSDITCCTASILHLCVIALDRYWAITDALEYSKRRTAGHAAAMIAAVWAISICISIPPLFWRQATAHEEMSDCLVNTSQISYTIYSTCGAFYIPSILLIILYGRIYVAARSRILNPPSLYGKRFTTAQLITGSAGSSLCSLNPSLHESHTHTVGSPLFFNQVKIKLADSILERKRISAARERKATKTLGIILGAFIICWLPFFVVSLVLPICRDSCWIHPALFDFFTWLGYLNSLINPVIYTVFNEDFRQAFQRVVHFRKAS
# Sequence of UniProt Q9Y6L6 (whole entry, looked up): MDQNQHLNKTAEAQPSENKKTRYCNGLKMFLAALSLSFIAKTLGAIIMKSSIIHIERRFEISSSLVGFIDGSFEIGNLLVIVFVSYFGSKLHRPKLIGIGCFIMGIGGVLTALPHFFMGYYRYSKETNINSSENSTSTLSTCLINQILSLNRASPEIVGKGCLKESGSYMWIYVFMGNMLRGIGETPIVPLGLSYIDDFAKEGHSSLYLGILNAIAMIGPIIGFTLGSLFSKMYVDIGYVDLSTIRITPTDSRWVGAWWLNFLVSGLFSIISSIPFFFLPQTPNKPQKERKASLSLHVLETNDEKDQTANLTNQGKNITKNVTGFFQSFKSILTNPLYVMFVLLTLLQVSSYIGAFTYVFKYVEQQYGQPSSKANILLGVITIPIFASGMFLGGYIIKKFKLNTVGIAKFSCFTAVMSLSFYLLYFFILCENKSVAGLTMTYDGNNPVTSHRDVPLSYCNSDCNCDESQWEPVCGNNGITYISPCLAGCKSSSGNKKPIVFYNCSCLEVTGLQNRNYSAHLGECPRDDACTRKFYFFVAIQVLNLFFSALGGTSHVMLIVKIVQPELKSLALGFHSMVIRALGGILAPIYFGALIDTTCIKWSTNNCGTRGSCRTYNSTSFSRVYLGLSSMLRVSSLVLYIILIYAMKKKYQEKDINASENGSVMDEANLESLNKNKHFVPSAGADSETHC
# Sequence of UniProt P06493 (whole entry, looked up): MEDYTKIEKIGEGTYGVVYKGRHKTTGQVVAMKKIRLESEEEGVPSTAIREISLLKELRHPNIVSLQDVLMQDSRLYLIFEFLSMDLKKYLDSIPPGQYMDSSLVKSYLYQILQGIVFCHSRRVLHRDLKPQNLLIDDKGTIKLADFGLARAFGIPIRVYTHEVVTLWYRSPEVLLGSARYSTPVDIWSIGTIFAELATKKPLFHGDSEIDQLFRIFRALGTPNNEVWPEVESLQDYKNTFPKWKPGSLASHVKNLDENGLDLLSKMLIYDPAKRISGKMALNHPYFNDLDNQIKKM
# Sequence of UniProt P49840 (whole entry, looked up): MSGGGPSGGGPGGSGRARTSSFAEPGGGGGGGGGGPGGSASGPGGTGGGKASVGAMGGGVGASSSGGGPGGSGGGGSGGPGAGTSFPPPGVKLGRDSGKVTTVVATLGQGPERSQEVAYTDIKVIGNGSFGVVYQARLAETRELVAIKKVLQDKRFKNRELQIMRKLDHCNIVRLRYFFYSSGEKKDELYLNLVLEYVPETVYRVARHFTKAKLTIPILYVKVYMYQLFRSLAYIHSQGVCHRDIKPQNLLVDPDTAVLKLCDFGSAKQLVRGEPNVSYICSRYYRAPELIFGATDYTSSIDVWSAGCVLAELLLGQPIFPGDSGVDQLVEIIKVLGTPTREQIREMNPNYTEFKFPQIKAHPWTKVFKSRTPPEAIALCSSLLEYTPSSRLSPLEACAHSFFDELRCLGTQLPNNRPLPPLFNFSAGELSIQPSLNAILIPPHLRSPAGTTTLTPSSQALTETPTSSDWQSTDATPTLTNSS
Structure (SMILES),tested on,assay,system,setting,how to read,quantity,result
CSCC[C@H](N)C(=O)N[C@@H](C)C(=O)N[C@@H](CCCNC(=N)N)C(=O)N[C@@H](CCCNC(=N)N)C(=O)N[C@@H](CC(=O)O)C(=O)N[C@@H](CCCCN)C(=O)N[C@H](C(=O)N[C@@H](CC(=O)O)C(=O)N[C@@H](Cc1ccccc1)C(=O)N[C@@H](C)C(=O)N[C@@H](CCCNC(=N)N)C(=O)N[C@@H](CCCNC(=N)N)C(=O)N[C@@H](CCCNC(=N)N)C(=O)N[C@@H](CCCNC(=N)N)C(=O)NCCCCCC(=O)NCCCCC(NC(=O)CCCCCNC(=O)[C@H](CCCNC(=N)N)NC(=O)[C@H](CCCNC(=N)N)NC(=O)[C@H](CCCNC(=N)N)NC(=O)[C@H](CCCNC(=N)N)NC(=O)[C@H](C)NC(=O)[C@H](Cc1ccccc1)NC(=O)[C@H](CC(=O)O)NC(=O)[C@@H](NC(=O)[C@H](CCCCN)NC(=O)[C@H](CC(=O)O)NC(=O)[C@H](CCCNC(=N)N)NC(=O)[C@H](CCCNC(=N)N)NC(=O)[C@H](C)NC(=O)[C@@H](N)CCSC)[C@@H](C)O)C(=O)NCCCCC(NC(=O)C(CCCCNC(=O)CCCCCNC(=O)[C@H](CCCNC(=N)N)NC(=O)[C@H](CCCNC(=N)N)NC(=O)[C@H](CCCNC(=N)N)NC(=O)[C@H](CCCNC(=N)N)NC(=O)[C@H](C)NC(=O)[C@H](Cc1ccccc1)NC(=O)[C@H](CC(=O)O)NC(=O)[C@@H](NC(=O)[C@H](CCCCN)NC(=O)[C@H](CC(=O)O)NC(=O)[C@H](CCCNC(=N)N)NC(=O)[C@H](CCCNC(=N)N)NC(=O)[C@H](C)NC(=O)[C@@H](N)CCSC)[C@@H](C)O)NC(=O)CCCCCNC(=O)[C@H](CCCNC(=N)N)NC(=O)[C@H](CCCNC(=N)N)NC(=O)[C@H](CCCNC(=N)N)NC(=O)[C@H](CCCNC(=N)N)NC(=O)[C@H](C)NC(=O)[C@H](Cc1ccccc1)NC(=O)[C@H](CC(=O)O)NC(=O)[C@@H](NC(=O)[C@H](CCCCN)NC(=O)[C@H](CC(=O)O)NC(=O)[C@H](CCCNC(=N)N)NC(=O)[C@H](CCCNC(=N)N)NC(=O)[C@H](C)NC(=O)[C@@H](N)CCSC)[C@@H](C)O)C(N)=O)[C@@H](C)O (stereo partly drawn),,,"C57BL/6 mouse female, colon","dose not given, 3 h",reference: total,tissue distribution,1.4% and 2.61% and 1.37%
CC(=O)CCC1C(=O)NC(C(C)C)C(=O)NC(Cc2cc(O)cc(F)c2)C(=O)N2CCCC(N2)C(=O)OC(C(C)=CC=CC(=O)N2CCCCO2)CC=CC=CC(O)C(C)C1O (stereo not drawn),,,"rat Sprague-Dawley male, whole blood","oral, 5 mg/kg",reference: whole blood over plasma,AUC(0-24h) ratio,37
CS(C)(=O)=Nc1ccc(-c2ccc(-c3nc4cc(O[C@@H]5CO[C@H]6[C@@H]5OC[C@H]6O)[nH]c4cc3F)cc2)cc1,"Htr1d (Rattus norvegicus, UniProt P28565)","calcium signal, antagonist",,10 µM,,inhibition,3%
CN1Cc2cc(Cl)ccc2-n2c(nnc2C2CCN(c3cccc(F)n3)CC2)C1,,,"Sprague-Dawley rats male, cortex","intravenous, 0.03 mg/kg",,AUC,3.86 ng·h/mL
CC[C@H](C)[C@H](NC(=O)CN)C(=O)N[C@@H](CCCNC(=N)N)C(=O)N[C@@H](CCCCN)C(=O)N[C@@H](Cc1c[nH]c2ccccc12)C(=O)N[C@@H](Cc1ccccc1)C(=O)N[C@@H](CCCCN)C(=O)N[C@@H](CCCCN)C(=O)N[C@@H](C)C(=O)N[C@@H](C)C(=O)N[C@@H](Cc1c[nH]cn1)C(=O)N[C@H](C(=O)NCC(=O)N[C@@H](CCCCN)C(=O)N[C@@H](CCCCN)C(=O)N[C@H](C(=O)NCC(=O)N[C@@H](CCCCN)C(=O)N[C@H](C(=O)N[C@@H](C)C(=O)N[C@@H](CC(C)C)C(=O)N[C@@H](CC(N)=O)C(=O)N[C@@H](C)C(=O)N[C@@H](Cc1ccc(O)cc1)C(=O)N[C@@H](CC(C)C)C(N)=O)C(C)C)C(C)C)C(C)C,,,"zebrafish embryos 4 hpf, E3 medium",24 h,,chronic toxic concentration,5 µM
COc1ccccc1-c1n[nH]c2nc(N[C@H]3CC[C@H](NS(=O)(=O)CC(C)C)CC3)ncc12,,"bead binding, competition bead pull-down, item: LMJF.21.1860",Leishmania donovani extract,10 µM,reference: vehicle,relative abundance,1.12
CC(C)C[C@@H](NC(=O)[C@@H](CCCNC(=N)N)NC(=O)[C@@H](Cc1c[nH]cn1)NC(=O)[C@@H](Cc1c[nH]c2ccccc12)NC(=O)[C@@H](Cc1c[nH]cn1)NC(=O)[C@@H](Cc1ccccc1)NC(=O)[C@H](NC(=O)[C@@H](Cc1ccc(O)cc1)NC(=O)CNC(=O)CNC(=O)CCOCCOCCOCCNC(=O)CN1CCN(CC(=O)O)CCN(CC(=O)O)CC1)[C@H](C)O)C(=O)N[C@H](CC(N)=O)C(=O)N1CCC[C@@H]1C(=O)O [gallium-68 labelled],,gamma counting,"C57BL/6 mice, male, tumor","intravenous, 1.85 MBq, 30 min",,tissue uptake,2.68 ± 0.34 %ID/g
COc1ccc(CNc2ccc3c(c2)S(=O)(=O)C=C3)cc1,,flow cytometry,"male C57BL/6 mice, spleen","i.p., 10 mg/kg, 8 days",reference: CD45+ cells,Gr-1+ CD11b+ cells,0.58%
CC[C@H](C)[C@H](NC(=O)[C@H](CCCCN)NC(=O)CNC(=O)[C@H](CC(C)C)NC(=O)[C@H](Cc1ccccc1)NC(=O)[C@H](CCCCN)NC(=O)[C@H](CO)NC(=O)[C@H](Cc1ccccc1)NC(=O)[C@H](Cc1c[nH]c2ccccc12)NC(=O)[C@H](CCC(N)=O)NC(=O)[C@@H](NC(=O)[C@H](Cc1ccccc1)NC(=O)CCCCCNC(=O)CN1CCN(CC(=O)O)CCN(CC(=O)O)CCN(CC(=O)O)CC1)C(C)C)C(=O)N[C@@H](CCC(=O)O)C(=O)N1CCC[C@H]1C(=O)N[C@@H](CC(=O)O)C(=O)N[C@H](C(=O)N[C@@H](CO)C(=O)N[C@@H](CCC(N)=O)C(=O)N[C@H](C(=O)N[C@@H](CCC(N)=O)C(=O)N[C@@H](CC(=O)O)C(=O)N1CCC[C@H]1C(=O)N[C@@H](CC(N)=O)C(=O)N[C@@H](CC(=O)O)C(=O)N[C@@H](CCC(N)=O)C(=O)N[C@@H](Cc1ccc(O)cc1)C(=O)N[C@@H](CCC(=O)O)C(=O)N1CCC[C@H]1C(=O)N[C@@H](Cc1ccccc1)C(=O)O)C(C)C)C(C)C [copper-64 labelled],,dynamic PET,"mouse both sexes, CT26 tumour, checkpoint inhibitor-treated, tumour","intravenous, 100 µCi/mouse, 870 s",,SUVmean,3.87 SUV
C/C(=N\OCCCN1CCCCC1)c1ccc(C(F)(F)F)cc1,,,rhesus monkey,"dose not given, after dosing",,diastolic blood pressure,83 mmHg and 72 mmHg
CCCCCCCCCCCCCCCC(=O)N[C@@H](CCC(=O)NCCOCCOCCC(=O)NCCOCCOCCC(=O)NCCCC[C@H](NC(=O)[C@H](CC(=O)O)NC(=O)[C@H](CC(C)C)NC(=O)[C@H](Cc1ccc(O)cc1)NC(=O)[C@H](CCCCN)NC(=O)[C@H](CO)NC(=O)[C@H](Cc1ccc(O)cc1)NC(=O)[C@H](CC(=O)O)NC(=O)[C@H](CO)NC(=O)[C@@H](NC(=O)[C@H](Cc1ccccc1)NC(=O)[C@@H](NC(=O)CNC(=O)[C@H](CCC(N)=O)NC(=O)[C@@H](CO)NC(=O)[C@@H](N)Cc1c[nH]cn1)[C@@H](C)O)[C@@H](C)O)C(=O)N[C@@H](CCCNC(=N)N)C(=O)N[C@@H](CCCNC(=N)N)C(=O)N[C@@H](C)C(=O)N[C@@H](CCC(N)=O)C(=O)N[C@@H](CC(=O)O)C(=O)N[C@@H](Cc1ccccc1)C(=O)N[C@H](C(=O)N[C@@H](CCC(N)=O)C(=O)N[C@@H](Cc1c[nH]c2ccccc12)C(=O)N[C@@H](CC(C)C)C(=O)N[C@@H](CC(C)C)C(=O)N[C@@H](CC(N)=O)C(=O)N[C@H](C(=O)NCC(=O)NCC(=O)N1CCC[C@H]1C(=O)N[C@@H](CO)C(=O)N[C@@H](CO)C(=O)NCC(=O)N[C@@H](C)C(=O)N1CCC[C@H]1C(=O)N1CCC[C@H]1C(=O)N1CCC[C@H]1C(=O)N[C@@H](CO)C(N)=O)[C@@H](C)O)C(C)C)C(=O)O,,item: AST,"Sprague-Dawley rat, male","subcutaneous, 500 µg/kg once daily, 14 days",,serum enzyme activity,151 ± 16 U/L
Cc1cc(-c2ccc3ccccc3c2)nnc1NCCN1CCN(C)CC1,"SLCO1B1 (Homo sapiens, UniProt Q9Y6L6)",transport,,concentration not given,,inhibition,negative
O=C1NC(=O)c2c1c1cc(F)c[n+]3c1c1c2c2cc(O)ccc2[n]1[Ru-4]312([N]=C=S)[S+]3CC[S+]1CC[S+]2CC3 (stereo not drawn),"Cyclin-dependent kinase 1, with cyclin B (CDK1, Homo sapiens, UniProt P06493)",enzyme activity,,"100 nM, human enzyme, added: 10 µM ATP",reference: untreated,remaining activity,97%
CSCC[C@H](NC(=O)CNC(=O)[C@H](CCCCN)NC(=O)[C@H](CC(C)C)NC(=O)[C@@H]1CCCN1C(=O)[C@H](CO)NC(=O)[C@H](Cc1c[nH]cn1)NC(=O)[C@H](Cc1c[nH]c2ccccc12)NC(=O)[C@H](CCCNC(=N)N)NC(=O)[C@H](CC(C)C)NC(=O)[C@H](CCCNC(=N)N)NC(=O)[C@H](Cc1c[nH]c2ccccc12)NC(=O)[C@H](CS)NC(=O)CCCCCNC(=O)CN1CCN(CC(=O)O)CCN(CC(=O)O)CCN(CC(=O)O)CC1)C(=O)O [copper-64 labelled],,ex vivo biodistribution,"BALB/c nude mice, stomach","intravenous, dose not given, 6 h, Huh-7 tumour-bearing",,tissue uptake,3.27 %ID/g
CC(C)=CCC/C(C)=C\CCn1cc(CC(P(=O)(O)O)P(=O)(O)O)nn1,,,CD-1 mice,"intravenous, 0.3 mg/kg, 24 h",,biliary excretion of dose,not detected
CN(C)[C@H]1C[C@@]23CC[C@@]4(O2)C(=CC[C@]2(C)[C@@H](c5ccc6ccncc6c5)CC[C@H]24)C=C3[C@@H](O)[C@@H]1O,"GSK3A (Homo sapiens, UniProt P49840)","ATP probe labelling, inhibitor, KiNativ profiling",,0.1 µM,,inhibition,-2%
O=C1NC2(CC2)COc2ncc(F)cc2[C@H]2COCCN2c2ccn3ncc1c3n2,,,"Sprague-Dawley rats, female, blood","oral, 5 mg/kg/day, end of recovery, 4-week subacute toxicity",,haematocrit,40.1 ± 2.1%
COc1ccccc1-c1n[nH]c2nc(NC3CCN(C(=O)Cc4ccc(F)cc4F)CC3)ncc12,,"bead binding, competition bead pull-down, item: LINJ.35.1420",Leishmania donovani axenic amastigote extract,10 µM,reference: vehicle,relative abundance,1.1
